Assay results pooled from the literature.
Numbered parts are unrelated; each lists some results of a single study.

Block 1
Target: TAR DNA-binding protein 43, full length, His tag (TARDBP, Homo sapiens, UniProt Q13148, residues 1-414)
Technique: RNA Bind-n-Seq
Form: RNA
Sample: in vitro
Concentration: 20 nM
Setting: 6-mer, flanks averaged, single round
Together with: 150 mM LiCl
Relative to: input library
Reading: higher = stronger binding
Sequence | 6-mer enrichment (R)
UGUAAC | 0.924
CUUAUG | 0.969
UCGCCU | 0.895
UCCUCA | 0.889
GACUUC | 0.823

Block 2
Target: Histone acetyltransferase KAT6A, winged helix 2, GST fusion (KAT6A, Homo sapiens, UniProt Q92794, residues 85-181)
Technique: protein binding microarray
Form: double-stranded DNA, one strand shown
Sample: in vitro
Concentration: not given
Setting: 8-mer, flanks averaged, mean of 2 arrays, mostly near background
Relative to: not given
Reading: higher = stronger binding
Construct (chain): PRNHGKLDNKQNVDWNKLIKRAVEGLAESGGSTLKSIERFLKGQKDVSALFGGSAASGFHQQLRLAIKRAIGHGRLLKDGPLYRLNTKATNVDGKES
Sequence | E-score
GTCCGGTA | 0.0785
CAATCGTA | -0.0303
AGGGGTCC | -0.187
GCGAGGCA | 0.157
AATCCTAA | -0.0725
ACGTGAGG | -0.0733
AATCACTG | 0.097
AGCAATGG | 0.0442

Block 3
Target: Hepatocyte nuclear factor 3-beta, forkhead domain (FOXA2, Homo sapiens, UniProt Q9Y261, residues 142-269)
Technique: protein-binding microarray
Form: double-stranded DNA, one strand shown
Sample: in vitro
Concentration: not given
Setting: k-mer, scored over probes, only values ≥0.25
Reading: higher = stronger binding
Target sequence (chain): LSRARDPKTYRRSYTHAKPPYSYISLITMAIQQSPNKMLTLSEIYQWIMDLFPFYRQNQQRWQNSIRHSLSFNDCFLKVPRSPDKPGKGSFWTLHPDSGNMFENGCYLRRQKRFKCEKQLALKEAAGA
Sequence | E-score
ATGAGTAA | 0.257
AACTGTAT | 0.326
GCTATTCA | 0.268
TTATTCAA | 0.307
TACATAAA | 0.332

Further values, each from its own experiment
Molecule | target | test | test system | setting | scale | measurement | value
PhoQ, residues 284 288 289 292 302 303 SCEHLI | PhoP, residues 12 14 15 18 19 HEGLL (Escherichia coli, UniProt P23836) | Sort-seq, measured: YFP reporter | E. coli | PhoQ-PhoP variant library, together with: 10 µM Mg2+ | relative to: high Mg2+ state, higher = stronger signaling | fold induction | 7.39

Excerpt of the above (block 3):
Sequence | E-score
GCTATTCA | 0.268
ATGAGTAA | 0.257
AACTGTAT | 0.326
